Measurements gathered from unrelated publications.
Numbered parts are unrelated; each lists some results of a single study. ± gives the spread as reported. In brackets after ≈: the same amount, converted by molar mass.
Chain of UniProt P34913 (whole entry, looked up): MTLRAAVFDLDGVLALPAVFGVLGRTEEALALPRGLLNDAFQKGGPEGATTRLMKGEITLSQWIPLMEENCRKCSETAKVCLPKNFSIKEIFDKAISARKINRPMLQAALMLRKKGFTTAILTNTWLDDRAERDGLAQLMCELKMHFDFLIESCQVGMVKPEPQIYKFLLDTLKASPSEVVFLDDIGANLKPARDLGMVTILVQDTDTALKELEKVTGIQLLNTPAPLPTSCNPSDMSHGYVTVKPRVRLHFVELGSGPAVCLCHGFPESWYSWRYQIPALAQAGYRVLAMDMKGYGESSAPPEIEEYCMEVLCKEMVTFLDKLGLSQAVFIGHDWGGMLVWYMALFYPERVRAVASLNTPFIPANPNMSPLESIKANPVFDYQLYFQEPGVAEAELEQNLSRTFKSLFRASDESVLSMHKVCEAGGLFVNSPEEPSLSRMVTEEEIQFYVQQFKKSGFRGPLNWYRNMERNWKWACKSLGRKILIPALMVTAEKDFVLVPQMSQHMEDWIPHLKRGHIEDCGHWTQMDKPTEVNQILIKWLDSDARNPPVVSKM
Chain of UniProt P25929 (whole entry, looked up): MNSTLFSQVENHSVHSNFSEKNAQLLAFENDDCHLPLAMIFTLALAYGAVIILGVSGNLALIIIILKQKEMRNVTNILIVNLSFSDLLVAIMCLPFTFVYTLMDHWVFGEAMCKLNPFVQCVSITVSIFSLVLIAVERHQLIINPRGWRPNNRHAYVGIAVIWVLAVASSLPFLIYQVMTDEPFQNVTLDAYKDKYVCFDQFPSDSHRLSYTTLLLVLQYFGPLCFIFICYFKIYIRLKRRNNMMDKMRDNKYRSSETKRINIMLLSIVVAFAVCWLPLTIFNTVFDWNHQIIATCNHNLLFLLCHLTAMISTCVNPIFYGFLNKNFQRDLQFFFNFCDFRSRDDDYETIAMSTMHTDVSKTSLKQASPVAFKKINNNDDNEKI

Series 1
SMILES: Cc1cc(OCc2nnc(SC3CCCC3)n2-c2cccnc2)ccc1-c1ccc(S(C)(=O)=O)cc1
For NCI-H322M: CC50 read over 100 µM.
It gave 7.18 µM for CC50 (SK-MEL-28).
PC-3 — CC50: over 100 µM.
OVCAR-8 — CC50: over 100 µM.
SW-620 — CC50: 88.6 µM.
SK-OV-3 — CC50: over 100 µM.

Single results of other studies
`human neuropeptide Y` has a cAMP level of 86.5 ± 14.7% (NPY1R (Homo sapiens, UniProt P25929); agonist, ELISA; SK-N-MC cells; 0.1 nM, 1 h, 37 °C, together with: forskolin 10 µM; relative to: forskolin-stimulated saline-treated cells).
The clearance of N#Cc1ccc(-c2csc(CNC(=O)C34CC(CN(C(=O)COCCF)C3)C4)n2)cc1 is reported as 8.4 mL/min/kg (Sprague Dawley rats male, plasma; intravenous, 1 mg/kg).
Cc1ccccc1S(=O)(=O)Nc1c(N2CCC(NC(=O)Nc3ccc(OC(F)(F)F)c(F)c3)CC2)c(=O)c1=O gave an IC50 of 0.0293 ± 0.0023 µM (EPHX2 (Homo sapiens, UniProt P34913)).
With C#Cc1cccc(Nc2ncnc3cc(OCCOC)c(OCCOC)cc23)c1 the viability was 57% (HepG2; MTT; 1.6 µg/mL, maintenance medium, 2% serum).
CC[C@@H]1C(=O)N(C)c2cnc(Nc3ccc(C(=O)NC4CCN(C)CC4)cc3OC)nc2N1C1CCCC1 has a ΔG of -9.79 kcal/mol (Bromodomain-containing protein 4, BD1 (BRD4, Homo sapiens, UniProt O60885); ITC; 15 °C).
The solubility of O=C(Nc1ccc(-c2ccc3ccccc3n2)cc1)C1CCN(Cc2cccc(F)c2)CC1 is reported as 31 to 63 µM (≈ 13.6 to 27.7 µg/mL) (sodium phosphate buffer, 1% DMSO; pH 7.4).

Excerpt of the above (series 1):
PC-3 — CC50: over 100 µM.
